Measurements of several laboratories.
Numbered parts are unrelated; each lists some results of a single study. Changes are numbered by the printed parent chain.

Study 1
Target: RNA binding protein fox-1 homolog 2, RRM domain, GST-SBP tag (RBFOX2, Homo sapiens, UniProt O43251-10, residues 100-194)
Method: RNA Bind-n-Seq
Molecule type: RNA
Matrix: in vitro
Tested at: 365 nM
Setting: natural RNA segment, single round, ends assumed
Reference: no-protein control
Reading: higher = stronger binding
Constant ends, left off below: GGGAGUUCUACAGUCCGACGAUC … UGGAAUUCUCGGGUGCCAA
Residues (chain): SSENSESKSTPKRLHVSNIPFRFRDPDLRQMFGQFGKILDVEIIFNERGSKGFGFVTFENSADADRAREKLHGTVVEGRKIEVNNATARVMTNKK
Oligonucleotide | RBNS enrichment (R)
GGAAACUGGGGCAGCCAGUGCUUAUCUGCACACUCCAGAUGAGAAGGCAUACAGGAGGGGGCCCACUGAUCUUUGUCAGAUGGCCUGCAGGCACUCUGCAGAGGAUGGAA | 3.67
AGGAGGAGGAGACAGUCUUCCUCUUUAAGUUACAGAGAGCCGUAAGCUAAAGGACCUGCCUAGGAUUAUAAUAUUUGAAGAAUGAACUUUUAAAUUCUUGCAAUAACGAA | 0.633
AACAAAUGUGUAGGUGGCUGGAGAAAUGGCUUAGUGGUUAAGAGCUCGGUCCUGAGUUCAAUUCCCAGCAACCACAUGGUGGCUCAUAGCCAUCUGUAAUGGGAUUUGGU | 0.589
UGAGGGGACCUCUCACCUGGUCACAUGAGGUUGAGGAGGGCCCAGUGUCCUGGCAGAUGAUCAGUACAGUGUCCCCCUCAAGUCACACUUUCCUGCCUUACACAGAGCAG | 0.265
CAAACACAAACACCUACUUGGGCUGCACACAGUCACACAAUCAAUCUAUAAUUCUUGGGGUUAGCUCAGUCCAUUUACUUGUGUAUUUCUGAGUGGUUGGUGAGAUUACU | 0.348
GUUGUUUUUAGUGAGCAUGUUGUAGUCUCGACUGCAAAGAGAGAGAAUAAACUGCCCACUCAGAAGAUAUGUAAUUUGUAUCGUUGUAUAGUUUUAUUGAUUACACUGAU | 0.647
UGUUGUAAAGUUUUCCUAAACGAGGCUUUAACGUAAACACUGGUGACAUAAACCAUUCAUUGCUACCUUGCUUAUUGUGUUUUUACGCGGUUUUAUACUUUUUUUAUGAG | 0.365
GAGUCUAGUAAGUGUCUCUAGCCAGGCUUGUCAGUUGUGCAGGAAACAAGGCCUGGUCCUAGCAAACCUUAGCAUAUCUUCCCUUUUUAUUAUAAAUGGGUGGUUGUUUG | 0.576
CGCCGUCCCACCAGCUUCACUCUCUCCGUCUGUUUUUGCAACUAGGUAUUUCUAACGCCAGCACACUAUUUACAAGAUGGACUUACCUGGCAGACUUGCCCAGGUCACCA | 0.522
GGGAGUCCCUGCACUGCCAUCUGGCCGGGACGGAGGCGCCUGCCCGGUCUCCAGGCUCCUCUGAGCUUGGGUCAGCUCCUAAUGGAGCAUGGCACCCCAGGGAACCAGAG | 0.184
AAUUUCAUGGUUCUUUAAAUAUUAUAAACACAGAGUCAACAUAGAAUGAAAUUGUAUUUGUUAAAAUACACACAUUGGAGGACAAGAGCAGAUGACUACUUUUCGAAGUA | 0.396
AACUCACACAACUAGGAAGUGGCUGAGUCAGGACUUGAACCCAGGUCUCCCUGGAUCAGAACAGGAGCUCUUAACUACAGUGGCUGAAUAGCUUCUCCAAAGGCUCCCUG | 0.299

Study 2
Target: CEP164, C-terminal peptide (human)
Method: DHFR complementation, deep sequencing
Matrix: yeast
Setting: single substitutions, model-inferred values
Reference: wild type
Reading: higher = weaker binding
Starting sequence: PDZK1, PDZ domain 2 (human); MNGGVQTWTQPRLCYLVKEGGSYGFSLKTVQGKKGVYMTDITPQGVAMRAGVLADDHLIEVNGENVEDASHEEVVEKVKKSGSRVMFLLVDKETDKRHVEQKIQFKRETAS; partner HNRVKVYRF
Variant | binding free energy change [kcal/mol]
E67H | 0.463
K96T | -0.0353
E19R | -0.0671
H71E | 0.929
K106I | -0.094
V90D | -0.0436
M48A | -0.216
K96P | 0.0375
G20Y | 0.3
T42L | 0.0977
L53I | 0.311
V78Q | 1.65
V85A | 1.17
F105Y | -0.217
V66T | 0.902
E60Y | 0.535
E108G | -0.157

Study 3
Target: CCNE1, cyclin fold, Cln2 fusion (human)
Method: yeast growth competition, sequencing
Matrix: yeast
Setting: strong parent motif
Reference: not given
Reading: higher = stronger binding
Starting sequence: INSM1 docking peptide (human); PKAIRKLHFEDEV; partner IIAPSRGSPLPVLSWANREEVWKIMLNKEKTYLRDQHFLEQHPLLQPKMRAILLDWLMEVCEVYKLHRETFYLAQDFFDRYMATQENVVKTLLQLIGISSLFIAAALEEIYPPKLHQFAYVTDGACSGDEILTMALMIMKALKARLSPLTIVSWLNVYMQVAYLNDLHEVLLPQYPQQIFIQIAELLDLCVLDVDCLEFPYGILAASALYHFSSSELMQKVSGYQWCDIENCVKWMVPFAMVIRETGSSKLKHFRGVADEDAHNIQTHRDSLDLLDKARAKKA
Variant | normalised enrichment score
PKAIRKLHFPDEV [E10P] | 4.77
PKAIRKFHFEDEV [L7F] | -0.412
PKAIRKLHFEDIV [E12I] | 3.87
PDAIRKLHFEDEV [K2D] | 2.88
PKAIRKGHFEDEV [L7G] | 0.043
PKAARKLHFEDEV [I4A] | 3.67
PKAIRKLHFGDEV [E10G] | 4.64
PEAIRKLHFEDEV [K2E] | 2.64
PKAIRKLHFEPEV [D11P] | 2.63
PKAIRKYHFEDEV [L7Y] | 0.158
PKAIRKLHFEKEV [D11K] | 1.6
PKAYRKLHFEDEV [I4Y] | 1.45
PKAIMKLHFEDEV [R5M] | 0.831

Other studies, line by line
Molecule | target | assay | test system | setting | scale | quantity | value
PhoQ, residues 284 288 289 292 302 303 NLALSC | PhoP, residues 12 14 15 18 19 VQALL (Escherichia coli, UniProt P23836) | Sort-seq, refers to: YFP reporter | E. coli | PhoQ-PhoP variant library, with: 10 µM Mg2+ | reference: high Mg2+ state, higher = stronger signaling | fold induction | 1.36

A few entries again (study 3):
Variant | normalised enrichment score
PEAIRKLHFEDEV [K2E] | 2.64
PKAIRKLHFEDIV [E12I] | 3.87
PKAIRKGHFEDEV [L7G] | 0.043
